Results of several laboratories.
Each line is one published result; not all experiments were run side by side. Several values in a cell are separate wells, animals, samples, runs or records.
Target: Serine/threonine-protein kinase PAK 5 (PAK5, Homo sapiens, UniProt Q9P286)

The remaining activity of `Cc1cccc(-c2ccc3nc(NC(=O)C4CCCO4)nn3c2)c1` (stereo not shown) is reported as 88% (enzyme activity, Dundee kinase panel; 10 µM).
For `CCn1cc(C(=O)O)c(=O)c2c(N)c(F)c(NC3CCCCC3)cc21`, the inhibition was 8.9% (kinase activity; 0.1 µM, with: ATP at Km).
For `Cc1nc2c(F)cc(-c3nc(Nc4ccc(CNC(=O)CCCCCCC(=O)NO)cc4)ncc3F)cc2n1C(C)C`, the inhibition was 14% (enzyme activity, inhibitor; 1 µM).
`C=CC(=O)N1Cc2nc(-c3cc(-c4cc(Cl)cnc4Cl)c(F)cc3F)n(-c3ccncn3)c2C1` gave an inhibition of -0.1% (cell-free assay, inhibitor; 1 µM).
`CN1CC[C@@H](COc2cnc(C#N)cc2-c2ccn3nc(NC(=O)C4CC4)cc3c2)C1` gave an inhibition of 7% (enzyme activity, inhibitor; 1 µM).
With `CN1CCN(Cc2ccc(-c3ccc(CO[C@H]4CCC[C@@H]4NC(=O)c4cc(-c5cnn(C)c5)cnc4N)cc3)cc2)CC1` the inhibition was 2% (enzyme activity, inhibitor; 0.1 µM).
`COc1cc(Nc2nc(C)cc(-c3cnn4nc(OC)ccc34)n2)cc(C(F)(F)F)c1` — result for “percent of control binding”: 75% (kinase binding; 1 µM, PAK7).
`C=CC(=O)Nc1cccc(-c2cnc3[nH]cc(C(=O)NC(C)(C)C)c3n2)c1` has an inhibition of 11% and 14% (kinase activity; 0.1 µM).
`CCN1CCN(Cc2ccc(C(=O)Nc3ccc(C)c(NCc4cnc5[nH]ccc5c4OC)c3)cc2C(F)(F)F)CC1` has a remaining binding of 100% (binding, competition with immobilised ligand; 1 µM).
For `Cc1cccc(O[C@H]2CCC[C@@H](C(C)CNCc3ccncc3)C2)c1` (relative stereo), the inhibition was -5% (enzyme activity, inhibitor; 10 µM).
`COc1c(Cl)cccc1Nc1c(-c2ccncc2C#C[C@@]2(C)CCCN2C(=O)/C=C/CN(C)C)[nH]c2c1C(=O)NCC2` gave a remaining binding of 70% (cell-free assay, competition with immobilised ligand; 3 µM).
`Nc1ncc(-c2cc(-c3cnn(CC(F)(F)F)c3)ncc2F)nc1C(=O)NC1CNCC(F)C1` (stereo not shown) has a remaining activity of 93.9% (enzyme activity; 1 µM; baseline: DMSO control).
With `Cc1ccc(-c2c(/C=C(\C#N)C(=O)NC(C)C)n(CCCO)c3ncnc(N)c23)cc1` the remaining binding was 85% (cell-free assay, competition with immobilised ligand; 1 µM).
With `O=C=[N][Ru-4]123([n]4c5ccc(O)cc5c5c6c(c7cc(F)c[n+]1c7c54)C(=O)NC6=O)[S+]1CC[S+]2CC[S+]3CC1` (stereo not shown) the remaining activity was 96% (enzyme activity; 100 nM, human enzyme, with: 10 µM ATP; baseline: untreated).
For `C=CC(=O)N1CCc2ccc(-n3c(=O)ccc4cnc5ccc(-c6cnn(C)c6)cc5c43)cc21`, the remaining binding was 91% (KINOMEscan; 1 µM; baseline: DMSO control).
`COc1ccc(NC(=O)Nc2ccc3c(c2)C(=O)N(C(C)CO)CC(C)C(CN(C)Cc2ccc4c(c2)OCO4)O3)cc1` (stereo not shown) has a remaining activity of 107% (kinase activity, KinaseProfiler; 0.03 µM, species human; baseline: control).
`Cc1cccc(-c2ccc3nc(NC(=O)C4CCOCC4)nn3c2)c1` has a remaining activity of 74% (enzyme activity, Dundee kinase panel; 10 µM).
For `NC(=O)C[C@H]1CCc2sc3ncnc(O[C@H]4CC[C@H](N5CCOCC5)CC4)c3c21`, the inhibition was 3% (enzyme activity, inhibitor; 10 µM).
For `CC(C)=CC1OC(C)(C)C2C=C3C(=O)C(Cl)=CC(O)C3C3C(O)C4OC4C(=O)C132` (stereo not shown), the remaining binding was 79% (cell-free assay, competition with immobilised ligand; 10 µM).
